Measurements pooled from the literature.
Each line is one published result; not all experiments were run side by side. Numbers after ± are the reported error.
CYP2E1: Cytochrome P450 2E1 (CYP2E1, Homo sapiens, UniProt P05181)
UniProt P05181, sequence (whole entry, looked up): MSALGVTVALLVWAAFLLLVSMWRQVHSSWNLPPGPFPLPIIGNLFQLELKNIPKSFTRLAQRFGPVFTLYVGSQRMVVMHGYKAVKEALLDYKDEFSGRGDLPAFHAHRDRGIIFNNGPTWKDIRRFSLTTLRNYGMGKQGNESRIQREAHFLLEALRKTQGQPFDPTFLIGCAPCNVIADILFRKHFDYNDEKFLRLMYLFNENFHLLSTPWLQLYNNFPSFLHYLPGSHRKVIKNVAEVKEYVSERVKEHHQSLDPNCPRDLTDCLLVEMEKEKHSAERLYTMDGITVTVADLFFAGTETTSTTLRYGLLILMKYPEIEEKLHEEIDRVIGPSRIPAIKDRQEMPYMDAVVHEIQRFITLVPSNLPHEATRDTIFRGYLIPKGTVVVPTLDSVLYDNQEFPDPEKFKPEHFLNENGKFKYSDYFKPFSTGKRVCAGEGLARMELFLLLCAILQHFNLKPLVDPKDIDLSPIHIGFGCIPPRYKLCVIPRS
CYP1A2: Cytochrome P450 1A2 (CYP1A2, Homo sapiens, UniProt P05177)
UniProt P05177, sequence (whole entry, looked up): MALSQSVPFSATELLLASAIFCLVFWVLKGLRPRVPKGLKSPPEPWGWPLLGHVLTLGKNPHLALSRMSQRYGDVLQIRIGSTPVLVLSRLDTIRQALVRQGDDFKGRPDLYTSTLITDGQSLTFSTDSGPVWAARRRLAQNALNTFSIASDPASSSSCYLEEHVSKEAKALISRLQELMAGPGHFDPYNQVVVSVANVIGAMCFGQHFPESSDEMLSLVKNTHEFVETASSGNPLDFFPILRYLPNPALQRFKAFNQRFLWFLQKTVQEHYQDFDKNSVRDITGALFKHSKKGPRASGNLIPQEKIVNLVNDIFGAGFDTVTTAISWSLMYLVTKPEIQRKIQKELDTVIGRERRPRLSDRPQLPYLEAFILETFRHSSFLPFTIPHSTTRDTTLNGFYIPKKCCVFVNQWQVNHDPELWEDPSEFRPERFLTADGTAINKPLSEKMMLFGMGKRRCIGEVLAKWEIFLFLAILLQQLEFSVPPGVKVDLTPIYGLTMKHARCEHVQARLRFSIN
PROK: Proteinase K (PROK, Engyodontium album, UniProt P06873)
UniProt P06873, sequence (whole entry, looked up): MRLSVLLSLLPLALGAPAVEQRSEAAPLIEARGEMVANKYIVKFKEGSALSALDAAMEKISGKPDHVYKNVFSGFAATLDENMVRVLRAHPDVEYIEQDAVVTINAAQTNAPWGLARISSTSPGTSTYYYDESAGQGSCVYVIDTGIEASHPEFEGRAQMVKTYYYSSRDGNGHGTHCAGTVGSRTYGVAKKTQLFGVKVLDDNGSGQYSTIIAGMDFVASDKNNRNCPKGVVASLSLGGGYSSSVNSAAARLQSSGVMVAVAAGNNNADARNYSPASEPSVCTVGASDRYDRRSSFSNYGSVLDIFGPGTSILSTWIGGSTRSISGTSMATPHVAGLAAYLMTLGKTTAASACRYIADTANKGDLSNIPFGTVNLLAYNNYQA
UniProt P19111, sequence (whole entry, looked up): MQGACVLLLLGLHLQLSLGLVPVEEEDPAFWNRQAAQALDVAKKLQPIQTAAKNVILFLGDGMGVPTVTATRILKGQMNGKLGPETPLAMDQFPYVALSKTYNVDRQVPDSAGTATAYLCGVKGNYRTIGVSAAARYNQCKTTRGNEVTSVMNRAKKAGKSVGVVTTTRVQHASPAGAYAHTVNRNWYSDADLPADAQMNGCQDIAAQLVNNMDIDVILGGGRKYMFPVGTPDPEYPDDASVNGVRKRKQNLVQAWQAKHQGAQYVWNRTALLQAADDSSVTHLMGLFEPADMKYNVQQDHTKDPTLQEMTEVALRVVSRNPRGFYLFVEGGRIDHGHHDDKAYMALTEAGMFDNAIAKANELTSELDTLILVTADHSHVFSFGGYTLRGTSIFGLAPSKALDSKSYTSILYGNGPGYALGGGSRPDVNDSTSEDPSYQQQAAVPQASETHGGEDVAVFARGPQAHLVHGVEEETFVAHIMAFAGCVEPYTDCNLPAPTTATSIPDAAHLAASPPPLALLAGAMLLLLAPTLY
UniProt P61073, sequence (whole entry, looked up): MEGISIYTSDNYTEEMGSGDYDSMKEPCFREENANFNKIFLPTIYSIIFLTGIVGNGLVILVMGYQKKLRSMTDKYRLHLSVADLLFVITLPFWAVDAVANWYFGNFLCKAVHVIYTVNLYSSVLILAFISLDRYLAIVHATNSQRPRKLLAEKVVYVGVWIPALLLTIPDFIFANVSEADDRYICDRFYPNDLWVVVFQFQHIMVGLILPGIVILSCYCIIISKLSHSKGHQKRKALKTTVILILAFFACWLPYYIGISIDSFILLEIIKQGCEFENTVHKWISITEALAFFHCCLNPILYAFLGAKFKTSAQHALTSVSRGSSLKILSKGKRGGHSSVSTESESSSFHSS
UniProt P00761, sequence (whole entry, looked up): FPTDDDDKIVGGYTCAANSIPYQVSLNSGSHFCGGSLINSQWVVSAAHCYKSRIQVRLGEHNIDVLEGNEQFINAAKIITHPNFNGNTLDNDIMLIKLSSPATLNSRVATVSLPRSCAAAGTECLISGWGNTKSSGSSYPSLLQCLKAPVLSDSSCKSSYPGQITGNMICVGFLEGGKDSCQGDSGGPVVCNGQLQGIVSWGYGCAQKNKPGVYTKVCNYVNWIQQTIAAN

Compound	target	test	system	conditions	scale	quantity	value
Cc1cc(Br)c(O)c(Br)c1	CYP2E1	p-nitrophenol hydroxylation, competitive inhibitor, Cheng-Prusoff from IC50	–	together with: p-nitrophenol	–	Ki	1800 nM
CCN(CC)CCOc1ccc(-c2nnn(Cc3ccc(OC)cc3)c2N)cc1	Multidrug and toxin extrusion protein 1 (SLC47A1, Homo sapiens, UniProt Q96FL8)	transporter uptake, inhibitor	–	–	–	IC50	1300 nM
[64Cu+2].c1ccc(CNCc2ccc(CN3CCCNCCNCCCNCC3)cc2)nc1	CXCR4	–	NOD/SCID mouse, U87 and U87-stb-CXCR4 xenografts	iv, 90 min, no blocking dose	baseline: U87-stb-CXCR4 tumour over blood	tumour-to-blood ratio	27.3 ± 2.7
CC[C@H](C)[C@@H]1NC(=O)[C@H](C(C)C)NC(=O)[C@H](C(C)C)NC(=O)[C@H](CC(C)C)NC(=O)C[C@@H](C(=O)N[C@@H](Cc2c[nH]c3ccccc23)C(=O)N[C@@H](CC(N)=O)C(=O)N[C@@H](C)C(=O)N2CCC[C@H]2C(=O)NCC(=O)N[C@@H](Cc2ccccc2)C(=O)N[C@@H](Cc2ccccc2)C(=O)O)NC(=O)[C@H](C)NC(=O)[C@H](CCC(N)=O)NC(=O)[C@H](C(C)C)NC1=O	carboxypeptidase Y	–	–	12 h, pH 6.0, 28 °C	–	proteolytic stability	stable
CNC(=O)Oc1cc(C)c(S(C)(=O)=O)c(C)c1	CYP1A2	inhibitor	human liver microsomes	2 µM, pH 7.4, together with: phenacetin	–	inhibition	2.14%
CC[C@H](C)[C@H](NC(=O)[C@H](Cc1c[nH]cn1)NC(=O)[C@H](CC(N)=O)NC(=O)[C@H](Cc1ccccc1)NC(=O)[C@H](Cc1ccc(O)cc1)NC(=O)[C@H](Cc1ccc(O)cc1)NC(=O)[C@@H](NC(=O)[C@H](CCCNC(=N)N)NC(=O)CNC(=O)[C@H](CO)NC(=O)[C@H](CO)NC(=O)[C@H](CCCNC(=N)N)NC(=O)[C@H](CO)NC(=O)[C@H](CCSC)NC(=O)[C@H](CCCNC(=N)N)NC(=O)[C@H](CCCCN)NC(=O)[C@H](CCC(=O)O)NC(=O)[C@H](Cc1c[nH]c2ccccc12)NC(=O)CNC(=O)[C@@H]1CCCN1C(=O)[C@@H]1CCCN1C(=O)[C@H](CC(C)C)NC(=O)[C@@H](N)CCCCN)C(C)C)C(=O)N[C@H](C(=O)N[C@@H](CC(N)=O)C(=O)N[C@@H](C)C(=O)N[C@@H](CC(=O)N(CCOCCOCCOCCOC)CCOCCOCCOCCOC)C(=O)N[C@@H](CCC(N)=O)C(=O)N[C@@H](Cc1ccccc1)C(=O)N[C@@H](CCC(=O)O)C(=O)N[C@@H](CCCNC(=N)N)C(=O)N1CCC[C@H]1C(=O)N[C@@H](CO)C(=O)NCC(=O)O)[C@@H](C)O	PROK	proteolysis, substrate, HPLC	–	room temperature	baseline: PEGylated over non-PEGylated variant, negative = more stable	ln rate constant ratio	-1.5 ± 0.4
CNC(=O)Oc1cc(C)c([S+](C)[O-])c(C)c1 (stereo not shown)	CYP1A2	inhibitor	human liver microsomes	10 µM, pH 7.4, together with: phenacetin	–	inhibition	7.66%
N=C(N)NCCC[C@H](NC(=O)[C@H](CCCNC(=N)N)NC(=O)[C@H](CCCNC(=N)N)NC(=O)[C@H](CCC(N)=O)NC(=O)[C@H](CCCNC(=N)N)NC(=O)[C@H](CCCNC(=N)N)NC(=O)[C@H](CCCCN)NC(=O)[C@H](CCCCN)NC(=O)[C@H](CCCNC(=N)N)NC(=O)CNC(=O)[C@H](Cc1ccc(O)cc1)NC(=O)CNC(=O)CNC(=O)[C@H](CCCCN)NC(=O)[C@H](CCCNC(=N)N)NC(=O)[C@H](CCC(N)=O)NC(=O)[C@H](CS)NC(=O)[C@H](CCC(N)=O)NC(=O)CNC(=O)[C@H](CC(N)=O)NC(=O)[C@@H](N)CCCNC(=N)N)C(N)=O	Trypsin (Sus scrofa, UniProt P00761)	HPLC	–	concentration not given, 20 min, pH 8.0, 37 °C	–	degradation	> 55%
Oc1c(Br)cccc1Br	CYP2E1	p-nitrophenol hydroxylation, noncompetitive inhibitor, calculated from IC50	baculosomes	–	–	Ki	29000 nM
O=P([O-])([O-])Oc1ccc(-c2cc(=S)ss2)cc1.[Na+].[Na+]	Intestinal-type alkaline phosphatase (ALPI, Bos taurus, UniProt P19111)	prodrug conversion, substrate	bovine intestinal enzyme	300 µM, pH 7.4, 37 °C	–	time to complete hydrolysis	< 5 s
CC[C@H](C)[C@H](NC(=O)[C@H](Cc1c[nH]cn1)NC(=O)[C@H](CC(N)=O)NC(=O)[C@H](Cc1ccccc1)NC(=O)[C@H](Cc1ccc(O)cc1)NC(=O)[C@H](Cc1ccc(O)cc1)NC(=O)[C@@H](NC(=O)[C@H](CCCNC(=N)N)NC(=O)CNC(=O)[C@H](CO)NC(=O)[C@H](CO)NC(=O)[C@H](CCCNC(=N)N)NC(=O)[C@H](CCC(=O)NCCOCCOCCOCCOC)NC(=O)[C@H](CCSC)NC(=O)[C@H](CCCNC(=N)N)NC(=O)[C@H](CCCCN)NC(=O)[C@H](CCC(=O)O)NC(=O)[C@H](Cc1c[nH]c2ccccc12)NC(=O)CNC(=O)[C@@H]1CCCN1C(=O)[C@@H]1CCCN1C(=O)[C@H](CC(C)C)NC(=O)[C@@H](N)CCCCN)C(C)C)C(=O)N[C@H](C(=O)N[C@@H](CC(N)=O)C(=O)N[C@@H](C)C(=O)N[C@@H](CO)C(=O)N[C@@H](CCC(N)=O)C(=O)N[C@@H](Cc1ccccc1)C(=O)N[C@@H](CCC(=O)O)C(=O)N[C@@H](CCCNC(=N)N)C(=O)N1CCC[C@H]1C(=O)N[C@@H](CO)C(=O)NCC(=O)O)[C@@H](C)O	PROK	proteolysis, substrate, HPLC	–	room temperature	baseline: PEGylated over non-PEGylated variant, negative = more stable	ln rate constant ratio	-1 ± 0.3
CN1C(=O)[C@@H](Cc2ccc(O)cc2)NC(=O)CNC(=O)[C@H](Cc2ccc3ccccc3c2)NC(=O)[C@H](CCCNC(=N)N)NC(=O)[C@H]1CCCNC(=O)c1ccc(CNC(=O)CN2CCN(CC(=O)O)CCN(CC(=O)O)CCN(CC(=O)O)CC2)cc1 [gallium-68 labelled]	C-X-C chemokine receptor type 4 (CXCR4, Homo sapiens, UniProt P61073)	PET imaging	human, spleen	–	–	SUVmean	5.69
CC[C@H](C)[C@H](NC(=O)[C@H](Cc1c[nH]cn1)NC(=O)[C@H](CC(N)=O)NC(=O)[C@H](Cc1ccccc1)NC(=O)[C@H](Cc1ccc(O)cc1)NC(=O)[C@H](Cc1ccc(O)cc1)NC(=O)[C@@H](NC(=O)[C@H](CCCNC(=N)N)NC(=O)CNC(=O)[C@H](CO)NC(=O)[C@H](CO)NC(=O)[C@H](CCCNC(=N)N)NC(=O)[C@H](CO)NC(=O)[C@H](CCSC)NC(=O)[C@H](CCCNC(=N)N)NC(=O)[C@H](CCCCN)NC(=O)[C@H](CCC(=O)O)NC(=O)[C@H](Cc1c[nH]c2ccccc12)NC(=O)CNC(=O)[C@@H]1CCCN1C(=O)[C@@H]1CCCN1C(=O)[C@H](CC(C)C)NC(=O)[C@@H](N)CCCCN)C(C)C)C(=O)N[C@@H](CC(=O)N(CCOCCOCCOCCOC)CCOCCOCCOCCOC)C(=O)N[C@@H](CC(N)=O)C(=O)N[C@@H](C)C(=O)N[C@@H](CO)C(=O)N[C@@H](CCC(N)=O)C(=O)N[C@@H](Cc1ccccc1)C(=O)N[C@@H](CCC(=O)O)C(=O)N[C@@H](CCCNC(=N)N)C(=O)N1CCC[C@H]1C(=O)N[C@@H](CO)C(=O)NCC(=O)O	PROK	proteolysis, substrate, HPLC	–	room temperature	baseline: PEGylated over non-PEGylated variant, negative = more stable	ln rate constant ratio	-2 ± 0.4
CC[C@H](C)[C@H](NC(=O)[C@H](C)NC(=O)[C@H](CCCNC(=N)N)NC(=O)[C@@H](NC(=O)[C@H](CCCCN)NC(=O)[C@H](CC(N)=O)NC(=O)[C@H](CCCNC(=N)N)NC(=O)[C@@H](NC(=O)[C@@H](NC(=O)[C@H](CCC(=O)O)NC(=O)[C@H](CCCCN)NC(=O)[C@H](CCCNC(=N)N)NC(=O)[C@H](C)NC(=S)Nc1ccc2c(c1)C(=O)OC21c2ccc(O)cc2Oc2cc(O)ccc21)[C@@H](C)CC)[C@@H](C)CC)[C@@H](C)CC)C(=O)NCC(=O)N[C@@H](CCCCN)C(=O)N[C@@H](CCSC)C(=O)N[C@@H](C)C(=O)N[C@@H](CCCNC(=N)N)C(=O)N[C@H](C(=O)N[C@@H](Cc1ccccc1)C(=O)N[C@@H](CO)C(=O)N[C@H](C(=O)N[C@@H](CC(C)C)C(=O)N[C@@H](CCCNC(=N)N)C(=O)O)C(C)C)C(C)C	Calmodulin, Ca2+-bound (CAM, Paramecium tetraurelia, UniProt P07463)	analytical ultracentrifugation	–	Paramecium	–	complex molecular mass	19.4 kDa
CC[C@H](C)[C@H](NC(=O)[C@H](Cc1c[nH]cn1)NC(=O)[C@H](CC(N)=O)NC(=O)[C@H](Cc1ccccc1)NC(=O)[C@H](Cc1ccc(O)cc1)NC(=O)[C@H](Cc1ccc(O)cc1)NC(=O)[C@@H](NC(=O)[C@H](CCCNC(=N)N)NC(=O)CNC(=O)[C@H](CO)NC(=O)[C@H](CCn1cc(COCCOCCOCCOC)nn1)NC(=O)[C@H](CCCNC(=N)N)NC(=O)[C@H](CO)NC(=O)[C@H](CCSC)NC(=O)[C@H](CCCNC(=N)N)NC(=O)[C@H](CCCCN)NC(=O)[C@H](CCC(=O)O)NC(=O)[C@H](Cc1c[nH]c2ccccc12)NC(=O)CNC(=O)[C@@H]1CCCN1C(=O)[C@@H]1CCCN1C(=O)[C@H](CC(C)C)NC(=O)[C@@H](N)CCCCN)C(C)C)C(=O)N[C@H](C(=O)N[C@@H](CC(N)=O)C(=O)N[C@@H](C)C(=O)N[C@@H](CO)C(=O)N[C@@H](CCC(N)=O)C(=O)N[C@@H](Cc1ccccc1)C(=O)N[C@@H](CCC(=O)O)C(=O)N[C@@H](CCCNC(=N)N)C(=O)N1CCC[C@H]1C(=O)N[C@@H](CO)C(=O)NCC(=O)O)[C@@H](C)O	PROK	proteolysis, substrate, HPLC	–	room temperature	baseline: PEGylated over non-PEGylated variant, negative = more stable	ln rate constant ratio	-0.2 ± 0.3
CCCS(=O)(=O)c1ccc2[nH]c(NC(=O)OC)nc2c1	CYP1A2	inhibitor	human liver microsomes	2 µM, pH 7.4, together with: phenacetin	–	inhibition	2.25%
